Assay results gathered from unrelated publications.
Each numbered part is a random draw from the data of one study; scales do not carry over between parts. Positions count from the first letter of the parent shown.

Set 1 — target: CCND1, cyclin fold, Cln2 fusion (human); technique: yeast growth competition, sequencing; medium: yeast; setting: strong parent motif; baseline: not given; direction: higher = stronger binding; quantity: normalised enrichment score
Parent: RBL1 docking peptide (human); GSAKRRLFGEDPP; partner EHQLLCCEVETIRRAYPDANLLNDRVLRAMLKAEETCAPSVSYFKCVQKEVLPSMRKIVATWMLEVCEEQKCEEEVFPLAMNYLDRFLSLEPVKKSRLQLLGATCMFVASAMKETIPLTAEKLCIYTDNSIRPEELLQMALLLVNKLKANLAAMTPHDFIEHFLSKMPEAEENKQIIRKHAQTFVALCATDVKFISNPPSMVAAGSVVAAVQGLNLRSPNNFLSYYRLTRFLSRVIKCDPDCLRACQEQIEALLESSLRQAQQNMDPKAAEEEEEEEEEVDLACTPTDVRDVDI
GSAKRRAFGEDPP [L7A]: 0.316
GSAKRTLFGEDPP [R6T]: 0.549
GSAKRREFGEDPP [L7E]: -0.0575
GSAKQRLFGEDPP [R5Q]: 0.15
GSAKRRLFGEDLP [P12L]: 1.83
GSAKRRSFGEDPP [L7S]: 0.819
GSAKTRLFGEDPP [R5T]: 0.589
GSAKRRLFGEDPI [P13I]: 1.64
GSAKRRLFGEDCP [P12C]: 1.9
GSAKRRLFSEDPP [G9S]: 2.9
GAAKRRLFGEDPP [S2A]: 1.1
GSAKRSLFGEDPP [R6S]: 0.834
GPAKRRLFGEDPP [S2P]: 0.923
GSAKRRLFGEIPP [D11I]: 0.62
GSAKRRLFGEDPK [P13K]: 0.793
GSAKYRLFGEDPP [R5Y]: 1.11
GSAYRRLFGEDPP [K4Y]: 0.048
GLAKRRLFGEDPP [S2L]: 0.478
GSAKRRLFGEEPP [D11E]: 2.33
GSAKRRLFGIDPP [E10I]: 0.948
GSAKRRNFGEDPP [L7N]: 0.712
GSASRRLFGEDPP [K4S]: 0.963
GSAKRRLFGESPP [D11S]: 2.48
GSAWRRLFGEDPP [K4W]: 0.372
GSAKRRLFGEHPP [D11H]: 0.466

Set 2 — technique: aptamer microarray, sandwich; form: DNA with 2'F-ANA; medium: in vitro; concentration: 200 nM; together with: Cy3 exosite-II aptamer, 400 nM; direction: higher = stronger binding; quantity: mean fluorescence intensity; sequence: GGTTGGTGTGGTTGG
Target: Prothrombin, mature alpha-thrombin (F2, Homo sapiens, UniProt P00734)
Setting: whole 15-mer aptamer, many near background
2'F-ANA at 2 3 4 5 6 8 9 11 13: 60.5 a.u.
2'F-ANA at 2 4 5 6 7 11 12 13: 80 a.u.
2'F-ANA at 11 12 13: 659 a.u.
2'F-ANA at 1 2 3 4 6 12 14: 70.8 a.u.
2'F-ANA at 1 2 7 8 10 15: 57.5 a.u.
2'F-ANA at 4 5 6 7 8 10 11 14: 98.2 a.u.
2'F-ANA at 2 4 5 6 11 14 15: 60.8 a.u.
2'F-ANA at 1 3 10 11 12 13 15: 113 a.u.
2'F-ANA at 1 2 5 7 9 11 13 15: 75.5 a.u.
2'F-ANA at 2 3 4 5 6 8 9 10 11 13 14 15: 55.2 a.u.
2'F-ANA at 3 5 7 9 12 13 14: 64.7 a.u.
2'F-ANA at 5 9 10 11 13 14: 44.2 a.u.
2'F-ANA at 1 2 4 5 6 7 8 10 14 15: 62.6 a.u.
2'F-ANA at 3 4 6 8 9 12 15: 848 a.u.
2'F-ANA at 2 5 10 12 14 15: 45.3 a.u.
2'F-ANA at 2 3 4 12 15: 879 a.u.
2'F-ANA at 1 3 6 11 12 13 14: 97.5 a.u.
2'F-ANA at 1 3 4 5 6 7 9 11 13 15: 80.5 a.u.
2'F-ANA at 1 3 4 6 7 13 14 15: 93.2 a.u.

Set 3 — target: CREB3L2, bZIP domain (human); technique: DHFR protein complementation; medium: yeast; baseline: wild-type JUN-FOS pair; direction: higher = stronger binding; quantity: binding fitness
Setting: single substitutions, most at no-binding floor
Parent: JUN, bZIP domain (human); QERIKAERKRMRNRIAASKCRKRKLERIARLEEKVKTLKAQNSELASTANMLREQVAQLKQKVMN; partner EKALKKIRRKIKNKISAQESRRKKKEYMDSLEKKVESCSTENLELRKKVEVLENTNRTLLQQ
A49T: -1.49 natural log
K34G: -1.48 natural log
L38D: -1.58 natural log
E33A: -1.55 natural log
R30C: -1.61 natural log
K39S: -1.51 natural log
A29E: -1.41 natural log
A57S: -1.48 natural log
A46K: -1.52 natural log
Q55C: -1.37 natural log
A40D: -1.44 natural log
V56P: -1.52 natural log
A57P: -1.52 natural log

Set 4 — technique: DHFR PCA, deep sequencing; medium: yeast; together with: (+)-ABA 4.8 µM; baseline: wild-type fitted maximum; direction: higher = stronger binding; quantity: relative binding score
Target: ABI1, truncated, D143A, DHFR fusion (Arabidopsis thaliana)
Setting: methotrexate growth selection, single substitutions
Parent: PYL1, truncated, DHFR fusion (Arabidopsis thaliana); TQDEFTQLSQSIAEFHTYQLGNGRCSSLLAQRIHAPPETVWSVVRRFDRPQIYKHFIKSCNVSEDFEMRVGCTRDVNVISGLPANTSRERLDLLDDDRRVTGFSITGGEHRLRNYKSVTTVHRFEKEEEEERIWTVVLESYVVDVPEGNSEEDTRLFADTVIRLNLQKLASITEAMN
G107F: -0.177%
V161M: 40.3%
A170N: -5.8%
I79L: 20.1%
R69D: 38.3%
N165Y: 13%
P36N: 58.9%
R49T: 64.2%
R123C: 58.4%
F56H: -2.71%
V100Y: -16.1%
E109Y: 18%
E125M: 75.4%
F66A: 59.2%
V76I: 82.8%
Y18E: 21.7%
V78Y: 65.2%
E128C: 76.6%
S87A: 33.1%

Set 5 — technique: RNA Bind-n-Seq; form: RNA; medium: in vitro; concentration: 90 pmol; setting: 4-mer, random 30-nt RNA, single round; baseline: input library; direction: higher = stronger binding; quantity: 4-mer enrichment
Target: ATP-dependent RNA helicase DDX3X, helicase core (DDX3X, Homo sapiens, UniProt O00571, residues 132-607)
UniProt O00571, sequence (132-607, looked up): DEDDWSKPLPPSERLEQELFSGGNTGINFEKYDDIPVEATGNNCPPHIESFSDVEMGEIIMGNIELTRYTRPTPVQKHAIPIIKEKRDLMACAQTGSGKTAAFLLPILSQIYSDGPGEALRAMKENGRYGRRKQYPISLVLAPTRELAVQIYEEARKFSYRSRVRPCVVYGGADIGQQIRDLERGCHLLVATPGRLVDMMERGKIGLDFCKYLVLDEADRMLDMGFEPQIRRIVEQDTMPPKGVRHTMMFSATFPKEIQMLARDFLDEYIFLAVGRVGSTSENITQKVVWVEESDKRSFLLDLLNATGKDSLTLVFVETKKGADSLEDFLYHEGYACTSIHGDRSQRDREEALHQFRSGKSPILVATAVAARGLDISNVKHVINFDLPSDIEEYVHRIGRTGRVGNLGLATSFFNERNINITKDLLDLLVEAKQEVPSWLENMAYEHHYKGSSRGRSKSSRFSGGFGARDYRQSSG
Together with: 3 µM iPr-DMDA-PatA, 2 mM ADP, 2 mM phosphate
GCCA: 0.89 fold
GGCA: 0.798 fold
AAUA: 1.48 fold
AACG: 1.23 fold
AGGC: 0.891 fold
AAGU: 1.22 fold
GUCU: 0.826 fold
CGUC: 0.964 fold
AUAC: 1.16 fold
CAUG: 0.841 fold
AACC: 1.24 fold
CAGA: 1.19 fold

Set 6 — target: UBE2Q1 UBC core domain (UniProt Q7Z7E8); technique: yeast two-hybrid; medium: yeast; setting: mostly zero background; baseline: not given; direction: higher = stronger interaction; quantity: lacZ reporter activity
UniProt Q7Z7E8, sequence (whole entry, looked up): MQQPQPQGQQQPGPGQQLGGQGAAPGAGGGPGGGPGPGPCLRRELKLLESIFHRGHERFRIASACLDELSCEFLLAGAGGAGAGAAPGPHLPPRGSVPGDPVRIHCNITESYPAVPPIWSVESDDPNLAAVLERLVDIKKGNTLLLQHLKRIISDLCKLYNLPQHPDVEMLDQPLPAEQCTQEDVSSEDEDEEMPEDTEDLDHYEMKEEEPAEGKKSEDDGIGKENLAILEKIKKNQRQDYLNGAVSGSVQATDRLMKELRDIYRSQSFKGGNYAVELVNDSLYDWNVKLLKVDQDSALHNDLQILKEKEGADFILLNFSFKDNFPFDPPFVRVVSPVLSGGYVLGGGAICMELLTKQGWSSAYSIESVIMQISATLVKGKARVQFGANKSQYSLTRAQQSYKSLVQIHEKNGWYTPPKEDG
B1: SHPRH RING domain (UniProt Q149N8); chain KTSGGVNPEPCPICARQLGKQWAVLTCGHCFCNECISIIIEQYSVGSHRSSIKCAICRQTTSHKEISY
B2: RNF7 RING domain (UniProt Q9UBF6); chain AICRVQVMDACLRCQAENKQEDCVVVWGECNHSFHNCCMSLWVKQNNRCPLCQQDWVVQRIGK
B3: TRIM68 RING domain (UniProt Q6AZZ1); chain LVEAIVEEVACPICMTFLREPMSIDCGHSFCHSCLSGLWEIPGESQNWGYTCPLCRAPVQPRNLRP
B4: TRIM2 RING domain (UniProt Q9C040); chain VRQIDKQFLICSICLERYKNPKVLPCLHTFCERCLQNYIPAHSLTLSCPVCRQTSILPEKGV
B5: TRIM28 RING domain (UniProt Q13263); chain GAEALELLEHCGVCRERLRPEREPRLLPCLHSACSACLGPAAPAAANSSGDGGAAGDGTVVDCPVCKQQCFSKDIVE
B6: RNF10 RING domain (UniProt Q8N5U6); chain VRICSHEVPSCPICLYPPTAAKITRCGHIFCWACILHYLSLSEKTWSKCPICYSSVHKKDLKS
KITELNPHLMCALCGGYFIDATTIVECLHSFCKTCIVRYLETNKYCPMCDVQVHKTRPLL (PCGF2 RING domain (UniProt P35227)): 2010
SNNDLASLFECPVCFDYVLPPILQCQSGHLVCSNCRPKLTCCPTCRGPLGSIRNLA (SIAH1 RING domain (UniProt Q8IUQ4)): 0
B1 (SHPRH RING domain): 0
EDVLSKDAGECAICLEELQQGDTIARLPCLCIYHKGCIDEWFEVNRSCPEHPSD (ZNRF2 RING domain (UniProt Q8NHG8)): 0
B2 (RNF7 RING domain): 0
B3 (TRIM68 RING domain): 0
GSEEEEIPFRCFICRQAFQNPVVTKCRHYFCESCALEHFRATPRCYICDQPTGGIFNPA (RNF113B RING domain (UniProt Q8IZP6)): 0
B4 (TRIM2 RING domain): 0
B5 (TRIM28 RING domain): 0
B6 (RNF10 RING domain): 0

Set 7 — technique: universal PBM; form: double-stranded DNA, one strand shown; medium: in vitro; concentration: not given; direction: higher = stronger binding; quantity: E-score
Target: Sal-like protein 4, full length isoform B (SALL4, Homo sapiens, UniProt Q9UJQ4-2, residues 1-616)
Setting: 8-mer, flanks averaged, mean of replicates
Residues (chain): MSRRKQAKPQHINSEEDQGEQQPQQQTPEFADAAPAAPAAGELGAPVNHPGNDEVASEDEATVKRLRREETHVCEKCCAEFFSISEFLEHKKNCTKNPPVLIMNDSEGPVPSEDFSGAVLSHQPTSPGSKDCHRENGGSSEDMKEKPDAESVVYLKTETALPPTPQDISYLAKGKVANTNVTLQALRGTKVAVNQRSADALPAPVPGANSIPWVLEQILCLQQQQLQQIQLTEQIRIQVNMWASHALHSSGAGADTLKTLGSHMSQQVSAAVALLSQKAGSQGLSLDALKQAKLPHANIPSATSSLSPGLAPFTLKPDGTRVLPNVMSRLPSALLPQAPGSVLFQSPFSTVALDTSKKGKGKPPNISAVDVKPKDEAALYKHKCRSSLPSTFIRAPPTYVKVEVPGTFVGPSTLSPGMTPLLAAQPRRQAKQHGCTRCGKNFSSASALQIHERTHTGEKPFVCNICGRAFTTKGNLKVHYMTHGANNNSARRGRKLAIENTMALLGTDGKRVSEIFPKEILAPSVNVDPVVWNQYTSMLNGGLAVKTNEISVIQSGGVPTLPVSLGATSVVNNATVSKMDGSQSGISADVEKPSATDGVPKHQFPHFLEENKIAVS
TGGGAAAA: 0.0299
AATAAGCA: 0.268
ATGCGGCG: -0.116
AAGTAGGA: 0.0636
TCAGTCAA: -0.00921
AATTACCC: 0.00881
CACCCTGC: -0.108
ATAGCTAA: 0.134
AGGTATTG: 0.128
AAAACTGG: 0.0394
AGTTAACA: 0.152
AGCCTCTC: -0.112
TAGATAAA: 0.283
AACCATTA: 0.261
AGATTCAC: -0.0432
AAAATTGA: 0.333
CCCCCTGC: -0.217
ATTGGTGC: -0.129
GCTCTGCC: -0.306
AGGGTAGC: -0.116
TCTAAGCA: -0.0686
AGGGTGAC: -0.0654
GCAAGTCA: -0.0613
CCAGTCGA: -0.252

Some of these lines once more (set 3):
A49T: -1.49 natural log
K34G: -1.48 natural log
L38D: -1.58 natural log
E33A: -1.55 natural log
R30C: -1.61 natural log
K39S: -1.51 natural log
A29E: -1.41 natural log
A57S: -1.48 natural log
A46K: -1.52 natural log
Q55C: -1.37 natural log
A40D: -1.44 natural log
V56P: -1.52 natural log
A57P: -1.52 natural log
